Experimental data gathered from unrelated publications.
Compare with care: the assays were run in different laboratories. ± gives the spread as reported.
UGT1A1: UDP-glucuronosyltransferase 1A1 (UGT1A1, Homo sapiens, UniProt P22309)
Chain of UniProt P22309 (whole entry, looked up): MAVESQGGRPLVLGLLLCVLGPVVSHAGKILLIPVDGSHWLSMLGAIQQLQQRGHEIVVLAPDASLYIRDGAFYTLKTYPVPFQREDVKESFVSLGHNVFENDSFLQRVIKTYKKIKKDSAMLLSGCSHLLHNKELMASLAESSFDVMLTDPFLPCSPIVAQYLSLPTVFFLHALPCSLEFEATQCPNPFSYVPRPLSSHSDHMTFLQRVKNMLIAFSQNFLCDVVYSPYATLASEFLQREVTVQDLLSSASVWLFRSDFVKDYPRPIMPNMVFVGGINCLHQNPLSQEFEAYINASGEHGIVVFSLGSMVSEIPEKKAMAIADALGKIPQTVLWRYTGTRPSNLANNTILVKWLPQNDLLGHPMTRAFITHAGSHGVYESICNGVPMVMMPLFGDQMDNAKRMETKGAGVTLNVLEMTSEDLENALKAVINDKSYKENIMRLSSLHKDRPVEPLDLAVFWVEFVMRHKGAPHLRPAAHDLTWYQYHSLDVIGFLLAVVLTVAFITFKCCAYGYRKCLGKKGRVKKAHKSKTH
SLCO1B3: Solute carrier organic anion transporter family member 1B3 (SLCO1B3, Homo sapiens, UniProt Q9NPD5)
Chain of UniProt Q9NPD5 (whole entry, looked up): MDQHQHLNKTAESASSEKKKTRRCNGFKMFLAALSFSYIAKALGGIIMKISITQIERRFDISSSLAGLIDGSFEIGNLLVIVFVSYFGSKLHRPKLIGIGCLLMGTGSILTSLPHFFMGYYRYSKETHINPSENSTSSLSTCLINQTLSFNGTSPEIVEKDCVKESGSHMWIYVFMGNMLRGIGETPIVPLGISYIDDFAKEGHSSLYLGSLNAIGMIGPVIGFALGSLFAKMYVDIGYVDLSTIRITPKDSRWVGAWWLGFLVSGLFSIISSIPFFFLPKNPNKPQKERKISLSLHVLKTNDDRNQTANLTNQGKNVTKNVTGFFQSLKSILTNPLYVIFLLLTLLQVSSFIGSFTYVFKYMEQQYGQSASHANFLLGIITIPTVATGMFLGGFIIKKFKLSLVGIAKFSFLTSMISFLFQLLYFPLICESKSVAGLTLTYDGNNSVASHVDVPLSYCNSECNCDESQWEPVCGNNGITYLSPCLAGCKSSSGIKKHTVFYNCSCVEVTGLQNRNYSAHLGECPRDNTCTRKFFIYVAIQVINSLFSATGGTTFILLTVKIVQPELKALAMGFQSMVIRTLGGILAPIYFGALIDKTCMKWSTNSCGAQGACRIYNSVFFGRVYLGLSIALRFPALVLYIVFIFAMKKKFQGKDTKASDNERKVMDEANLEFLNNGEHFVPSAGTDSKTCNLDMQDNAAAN
ABCG2: Broad substrate specificity ATP-binding cassette transporter ABCG2 (ABCG2, Homo sapiens, UniProt Q9UNQ0)
Chain of UniProt Q9UNQ0 (whole entry, looked up): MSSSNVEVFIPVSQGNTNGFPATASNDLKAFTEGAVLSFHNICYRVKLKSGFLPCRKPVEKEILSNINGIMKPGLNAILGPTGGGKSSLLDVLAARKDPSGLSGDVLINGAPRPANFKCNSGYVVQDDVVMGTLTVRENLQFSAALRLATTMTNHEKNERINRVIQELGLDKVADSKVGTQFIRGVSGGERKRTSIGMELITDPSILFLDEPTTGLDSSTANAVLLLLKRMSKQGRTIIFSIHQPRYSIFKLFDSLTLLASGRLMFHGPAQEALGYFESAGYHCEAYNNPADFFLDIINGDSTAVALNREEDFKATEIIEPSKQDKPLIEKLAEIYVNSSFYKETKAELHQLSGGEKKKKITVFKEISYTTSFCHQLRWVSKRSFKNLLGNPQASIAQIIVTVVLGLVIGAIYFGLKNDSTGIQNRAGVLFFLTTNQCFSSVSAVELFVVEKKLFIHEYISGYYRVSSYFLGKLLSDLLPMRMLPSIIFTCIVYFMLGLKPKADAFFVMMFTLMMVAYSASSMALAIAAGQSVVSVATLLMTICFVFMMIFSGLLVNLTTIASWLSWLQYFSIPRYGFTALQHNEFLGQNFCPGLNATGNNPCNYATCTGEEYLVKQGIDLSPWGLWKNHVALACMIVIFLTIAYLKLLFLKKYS
CYP2A6: Cytochrome P450 2A6 (CYP2A6, Homo sapiens, UniProt P11509)
Chain of UniProt P11509 (whole entry, looked up): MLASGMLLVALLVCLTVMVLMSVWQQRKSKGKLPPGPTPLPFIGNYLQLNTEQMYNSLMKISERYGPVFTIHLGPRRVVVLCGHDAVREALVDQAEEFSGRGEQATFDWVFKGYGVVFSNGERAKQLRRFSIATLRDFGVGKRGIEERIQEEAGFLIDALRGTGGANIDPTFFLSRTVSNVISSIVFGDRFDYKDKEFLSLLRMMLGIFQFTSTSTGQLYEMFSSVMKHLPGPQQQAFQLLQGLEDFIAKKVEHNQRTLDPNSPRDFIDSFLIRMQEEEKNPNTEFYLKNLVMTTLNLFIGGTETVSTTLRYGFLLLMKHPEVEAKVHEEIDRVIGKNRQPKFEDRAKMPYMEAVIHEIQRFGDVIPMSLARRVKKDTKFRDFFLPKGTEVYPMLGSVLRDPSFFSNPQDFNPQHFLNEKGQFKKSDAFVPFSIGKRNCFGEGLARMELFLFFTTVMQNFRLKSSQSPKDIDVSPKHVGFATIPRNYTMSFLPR
Abcb1a: ATP-dependent translocase ABCB1 (Abcb1a, Mus musculus, UniProt P21447)
Chain of UniProt P21447 (whole entry, looked up): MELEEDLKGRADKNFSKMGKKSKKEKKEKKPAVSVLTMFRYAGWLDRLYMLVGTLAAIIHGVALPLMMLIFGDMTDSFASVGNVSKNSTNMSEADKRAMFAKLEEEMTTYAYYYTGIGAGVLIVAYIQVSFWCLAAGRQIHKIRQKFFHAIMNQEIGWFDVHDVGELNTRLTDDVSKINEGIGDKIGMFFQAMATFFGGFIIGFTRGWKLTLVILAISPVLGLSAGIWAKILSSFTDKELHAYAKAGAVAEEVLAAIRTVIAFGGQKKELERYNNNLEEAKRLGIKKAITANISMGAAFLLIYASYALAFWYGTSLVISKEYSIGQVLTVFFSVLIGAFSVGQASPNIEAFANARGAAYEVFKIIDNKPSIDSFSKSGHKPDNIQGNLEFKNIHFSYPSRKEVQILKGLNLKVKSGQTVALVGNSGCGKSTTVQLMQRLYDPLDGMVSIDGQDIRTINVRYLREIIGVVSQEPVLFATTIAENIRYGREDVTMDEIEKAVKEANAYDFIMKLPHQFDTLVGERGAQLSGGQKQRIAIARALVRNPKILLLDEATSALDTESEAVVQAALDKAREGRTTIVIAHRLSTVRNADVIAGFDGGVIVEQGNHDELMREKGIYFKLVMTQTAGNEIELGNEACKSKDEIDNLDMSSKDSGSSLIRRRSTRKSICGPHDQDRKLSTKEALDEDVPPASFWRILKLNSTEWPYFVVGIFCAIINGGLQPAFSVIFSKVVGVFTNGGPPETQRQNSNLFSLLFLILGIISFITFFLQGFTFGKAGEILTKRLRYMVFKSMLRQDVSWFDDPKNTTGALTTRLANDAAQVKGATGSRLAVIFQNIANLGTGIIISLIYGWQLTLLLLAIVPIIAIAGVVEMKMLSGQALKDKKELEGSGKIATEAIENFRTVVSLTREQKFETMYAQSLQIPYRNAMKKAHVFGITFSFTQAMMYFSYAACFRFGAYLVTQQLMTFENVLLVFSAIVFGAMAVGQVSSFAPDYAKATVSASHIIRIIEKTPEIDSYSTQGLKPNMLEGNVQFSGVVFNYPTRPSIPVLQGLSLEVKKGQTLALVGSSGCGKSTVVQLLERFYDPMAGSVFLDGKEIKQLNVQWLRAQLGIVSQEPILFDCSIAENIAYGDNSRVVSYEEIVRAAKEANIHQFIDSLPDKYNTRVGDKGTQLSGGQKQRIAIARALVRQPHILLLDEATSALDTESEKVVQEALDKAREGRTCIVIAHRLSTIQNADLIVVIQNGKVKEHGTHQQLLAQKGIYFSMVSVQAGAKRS
Chain of UniProt O35084 (whole entry, looked up): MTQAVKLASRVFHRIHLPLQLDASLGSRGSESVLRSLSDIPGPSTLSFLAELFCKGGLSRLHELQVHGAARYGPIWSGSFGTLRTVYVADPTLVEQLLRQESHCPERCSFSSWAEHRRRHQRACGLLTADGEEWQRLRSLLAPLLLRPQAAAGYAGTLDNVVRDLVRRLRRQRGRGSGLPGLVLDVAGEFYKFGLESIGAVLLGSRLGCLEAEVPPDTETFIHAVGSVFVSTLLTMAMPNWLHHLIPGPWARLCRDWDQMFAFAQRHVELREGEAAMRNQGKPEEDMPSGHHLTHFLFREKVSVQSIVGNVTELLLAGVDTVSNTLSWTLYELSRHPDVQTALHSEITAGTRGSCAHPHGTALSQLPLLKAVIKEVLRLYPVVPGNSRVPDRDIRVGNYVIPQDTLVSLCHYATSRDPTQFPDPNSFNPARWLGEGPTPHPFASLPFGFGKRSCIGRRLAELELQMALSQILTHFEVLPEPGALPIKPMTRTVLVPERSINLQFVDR

Substance	target	test	test system	setting	how to read	endpoint	result
O=c1c(O)c(-c2ccc(O)cc2)oc2cc(O)ccc12	UGT1A1	glucuronidation rate, inhibitor	–	5 µM, with: 7-hydroxyflavone substrate	reference: no inhibitor	inhibition	81.1 ± 4.5%
CO[C@H]1/C=C/O[C@@]2(C)Oc3c(C)c(O)c4c(O)c(c(/C=N/N5CCN(C)CC5)c(O)c4c3C2=O)NC(=O)/C(C)=C\C=C\[C@H](C)[C@H](O)[C@@H](C)[C@@H](O)[C@@H](C)[C@H](OC(C)=O)[C@@H]1C	SLCO1B3	transport, inhibitor	HEK293 overexpressing SLCO1B3	100 µM, with: estradiol-17β-glucuronide	reference: vehicle	remaining activity	2.5 ± 2.6%
O=C(C1CCCCC1)N1CCN(c2cc(-c3ccccc3)nc3cc(-c4cccc(Cl)c4)nn23)CC1	ABCG2	JC-1 dye efflux, inhibitor, flow cytometry	ABCG2-overexpressing cells	with: JC-1 1 µM	–	IC50	2670 ± 1260 nM
CC(C)[C@@H]1CC[C@@H](C)C[C@H]1O	CYP2A6	enzyme activity, inhibitor	–	20 µM, 10 min, 30 °C, preincubation with NADPH, with: coumarin 7-hydroxylation substrate	reference: no NADPH control	remaining activity	97 ± 6%
CCN(CCO)CCC[C@H](C)Nc1ccnc2cc(Cl)ccc12	SCN5A (Homo sapiens, UniProt Q14524)	ion current, inhibitor, patch clamp	–	–	–	IC50	> 90000 nM
O=C1CC(c2ccccc2)Oc2ccccc21 (stereo not shown)	CYP2A6	substrate, measured: hydroxy metabolite M3 formation	–	reconstituted system	–	Km	39 µM
C=C1CC[C@H](O)C/C1=C/C=C1\CCC[C@@]2(C)[C@H]1CC[C@@H]2[C@@](C)(O)CCCC(C)C	25-hydroxyvitamin D-1 alpha hydroxylase, mitochondrial (Mus musculus, UniProt O35084)	substrate	phospholipid vesicles	1 h, 0.025 mol per mol phospholipid, 0.8 µM enzyme	–	number of products	1
COc1ccc(C(=O)N2CCN(c3cc(-c4ccccc4)nc4cc(-c5cccc(Cl)c5)nn34)CC2)cc1	ABCG2	JC-1 dye efflux, inhibitor, flow cytometry	ABCG2-overexpressing cells	with: JC-1 1 µM	–	IC50	2820 ± 1910 nM
Cn1c2c(c3ccccc31)CN(CCCCNC(=O)c1cc3ccccc3[nH]1)CC2	KCNH2 (Homo sapiens, UniProt Q12809)	potassium current, inhibitor, automated patch clamp	CHO cells expressing hERG	–	–	IC50	1410 nM
CC(=O)c1cc(C(=O)N[C@@H](C)Cn2ccc(-c3ccc(C#N)c(Cl)c3)n2)[nH]n1	SLCO1B3	uptake, inhibitor	HEK (transfected)	1 h preincubation, with: pravastatin substrate	–	IC50	14200 nM
COc1ccc(-c2cc(N3CCN(C(=O)c4ccoc4)CC3)n3nc(-c4cccc(Cl)c4)cc3n2)cc1	ABCG2	JC-1 dye efflux, inhibitor, flow cytometry	ABCG2-overexpressing cells	with: JC-1 1 µM	–	IC50	1710 ± 580 nM
O=C(O)Cc1ccccc1Nc1c(Cl)cccc1Cl	UGT, human	4-MU glucuronidation, inhibitor	pooled human liver microsomes	30 min, pH 7.4, with: 4-methylumbelliferone 100 µM	–	IC50	86400 ± 1280 nM
O=C(c1ccccc1)N1CCN(c2cc(-c3ccccc3)nc3cc(-c4cccc(F)c4)nn23)CC1	ABCG2	JC-1 dye efflux, inhibitor, flow cytometry	ABCG2-overexpressing cells	with: JC-1 1 µM	–	IC50	2270 ± 60 nM
CCN(CC)C(=S)S	cytochrome P450, rat	–	rat liver microsomes	50 µM, 60 min, pH 7.4	–	inhibition	54%
CC/C=C\C/C=C\C/C=C\CCCCCCCC(=O)O	UGT1A1	enzyme activity, inhibitor	–	–	–	IC50	26100 nM
C=CC(=O)N1CCC([C@@H]2CCNc3c(C(N)=O)c(-c4ccc(Oc5ccccc5)cc4)nn32)CC1	SLCO1B3	transport, measured: estradiol-17β-glucuronide uptake	HEK293 transfected	1 µM	reference: vehicle	remaining activity	97.8 ± 7.1%
CC[C@H](C)[C@H](NC(=O)[C@H](CCC(=O)O)NC(=O)[C@H](CO)NC(=O)[C@@H](NC(=O)[C@@H](N)CO)C(C)C)C(=O)N[C@@H](CCC(N)=O)C(=O)N[C@@H](CC(C)C)C(=O)N[C@@H](CCSC)C(=O)N[C@@H](Cc1cnc[nH]1)C(=O)N[C@@H](CC(N)=O)C(=O)N[C@@H](CC(C)C)C(=O)NCC(=O)N[C@@H](CCCCN)C(=O)N[C@@H](Cc1cnc[nH]1)C(=O)N[C@@H](CC(C)C)C(=O)N[C@@H](CC(N)=O)C(=O)N[C@@H](CO)C(=O)N[C@@H](CCSC)C(=O)N[C@@H](CCC(=O)O)C(=O)N[C@@H](CCCN=C(N)N)C(=O)N[C@H](C(=O)N[C@@H](CCC(=O)O)C(=O)N[C@@H](Cc1c[nH]c2ccccc12)C(=O)N[C@@H](CC(C)C)C(=O)N[C@@H](CCCN=C(N)N)C(=O)N[C@@H](CCCCN)C(=O)N[C@@H](CCCCN)C(=O)N[C@@H](CC(C)C)C(=O)N[C@@H](CCC(N)=O)C(=O)N[C@@H](CC(=O)O)C(=O)N[C@H](C(=O)N[C@@H](Cc1cnc[nH]1)C(=O)N[C@@H](CC(N)=O)C(=O)N[C@@H](Cc1ccccc1)C(=O)O)C(C)C)C(C)C	trypsin (bovine pancreas)	proteolytic degradation, HPLC-UV	–	0.5 mg/mL, 0.25 h, pH 6.5, 37 °C, with: trypsin with soybean trypsin inhibitor	–	remaining intact compound	92 ± 1%
CN1CCN(c2ccc(C(=O)Nc3n[nH]c4ccc(Cc5cc(F)cc(F)c5)cc34)c(NC3CCOCC3)c2)CC1	Abcb1a	–	LLC-PK1 cells expressing mouse Abcb1a	3.5 h, with: zosuquidar 1 µM	apical to basolateral	Papp	1.46 ± 0.09 ×10⁻⁶ cm/s
C[C@]12CC[C@@H]3c4ccc(O)cc4CC[C@H]3[C@@H]1CC[C@@H]2O	UGT1A1	glucuronidation, substrate	–	with: UDPGA	–	Vmax	223 ± 10.6 pmol/min/mg
O=C(O)[C@H]1O[C@@H](Oc2c(-c3ccccc3)oc3ccccc3c2=O)[C@H](O)[C@@H](O)[C@@H]1O	UGT1A1	glucuronidation, substrate, Supersomes	–	–	–	Km	1.46 ± 0.24 µM
COc1cccc(C(=O)N2CCN(c3cc(-c4ccccc4)nc4cc(-c5cccc(Cl)c5)nn34)CC2)c1	ABCG2	JC-1 dye efflux, inhibitor, flow cytometry	ABCG2-overexpressing cells	with: JC-1 1 µM	–	IC50	4450 ± 4680 nM
CCOc1cc2ncc(C#N)c(Nc3ccc(OCc4ccccn4)c(Cl)c3)c2cc1NC(=O)/C=C/CN(C)C	ABCB1 and ABCG2	IVIVE scaling	human	–	–	BBB passive plus efflux clearance	207 mL/min
COc1ccccc1-c1cc(N2CCN(C(=O)c3ccoc3)CC2)n2nc(-c3ccccc3)cc2n1	ABCG2	JC-1 dye efflux, inhibitor, flow cytometry	ABCG2-overexpressing cells	with: JC-1 1 µM	–	IC50	3660 ± 2540 nM
O=C1NC(c2ccccc2)(c2ccccc2)C(=O)N1COP(=O)(O)O	alkaline phosphatase	–	human small intestinal microtissues	10 µM, 2 h, apical dosing, apical to basolateral	–	parent drug recovery	1.37%
C#Cc1cc(N2CCN(C(=O)c3ccoc3)CC2)n2nc(-c3cccc(Cl)c3)cc2n1	ABCG2	JC-1 dye efflux, inhibitor, flow cytometry	ABCG2-overexpressing cells	with: JC-1 1 µM	–	IC50	2360 ± 530 nM
O=C(Nc1cnn2ccc(N3CCC[C@@H]3c3cc(F)ccc3F)nc12)N1CC[C@H](O)C1	Abcb1a	–	LLC-PK1 cells expressing mouse Abcb1a	3.5 h, with: zosuquidar 1 µM	apical to basolateral	Papp	5.15 ± 0.21 ×10⁻⁶ cm/s
O=C(NCCCN1CCOCC1)c1cnn2c(-c3ccccc3)cc(-c3ccccc3)nc12	ABCG2	JC-1 dye efflux, inhibitor, flow cytometry	ABCG2-overexpressing cells	with: JC-1 1 µM	–	IC50	840 nM
liraglutide	α1-acid glycoprotein human	equilibrium dialysis	–	10 nM, 4 to 5 h, pH 7.4, 37 °C, ratio 50:1 (98% bound), with: AAGP 1 mg/mL	–	protein binding	98.7%
